Assay results pooled from the literature.
A part holds a random share of what one study measured. Changes are numbered by the printed parent chain.
Chain of UniProt P43403 (whole entry, looked up): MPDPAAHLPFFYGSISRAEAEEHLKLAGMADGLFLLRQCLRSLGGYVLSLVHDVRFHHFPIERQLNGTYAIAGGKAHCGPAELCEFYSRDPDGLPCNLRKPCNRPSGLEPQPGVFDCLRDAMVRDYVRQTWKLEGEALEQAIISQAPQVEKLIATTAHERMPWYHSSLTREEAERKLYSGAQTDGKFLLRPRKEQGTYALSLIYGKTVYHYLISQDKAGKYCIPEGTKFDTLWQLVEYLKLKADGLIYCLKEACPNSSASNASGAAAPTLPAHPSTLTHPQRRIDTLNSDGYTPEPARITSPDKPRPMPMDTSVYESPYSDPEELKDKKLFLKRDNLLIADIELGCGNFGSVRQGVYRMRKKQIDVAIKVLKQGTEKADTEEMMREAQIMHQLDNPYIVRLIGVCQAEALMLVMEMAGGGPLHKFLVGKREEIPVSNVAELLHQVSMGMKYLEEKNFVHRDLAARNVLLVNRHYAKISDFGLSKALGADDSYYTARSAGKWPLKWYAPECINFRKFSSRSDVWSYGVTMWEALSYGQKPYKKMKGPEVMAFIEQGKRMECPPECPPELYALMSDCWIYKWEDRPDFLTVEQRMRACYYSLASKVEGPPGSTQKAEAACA

Series 1 — technique: RNA Bind-n-Seq; molecule type: RNA; sample: in vitro; tested at: 365 nM; baseline: no-protein control; direction: higher = stronger binding
Target: RNA binding protein fox-1 homolog 2, RRM domain, GST-SBP tag (RBFOX2, Homo sapiens, UniProt O43251-10, residues 100-194)
Notes: natural RNA segment, single round, ends assumed
Shared flanks, not repeated: GGGAGUUCUACAGUCCGACGAUC … UGGAAUUCUCGGGUGCCAA
For `CUGAGACUGUGUUCAGCCCUUUCCCCUAUAAAUUGAUAGGAACUGUGUGUCCACCUUUCCAAAGAAAGGAAAGACAAAAAGAGUUUCCAGAUUGGCCCAGCUGCUGAUAG`, “RBNS enrichment (R)” read 0.465.
`GUCUGAGGUCACACUCUCUGCCCACUCACCUCCUUGGCUGACAUCGGUUGUGUUUGGUGCUGACACUCUGAUCCCGAAGCCAGGGAGCCCCAAGGGGCUGCAUGACCCUG` — result for “RBNS enrichment (R)”: 18.3.
For `GCUUCUAUAAUGAGGCACAUAUUAAUACAGUUUUUAUAUGGUAUCUAUGAAAGAGUUCACUUCAUAGAGAAUAAUACUUGAGCAAAUGUAUCCAAGAAAGCAAGCAAAUG`, “RBNS enrichment (R)” read 0.474.
`AGGAUUUACACAACUUUAAAGGGAAGAUAAAUGAACAUCAGAUUUCUAGGUAUAGAACUAUGUUAUUGAAAGGAAAAGGAAAACUGGUGUUUGUUUCUUAGACUCAUGAA`: “RBNS enrichment (R)” 2.25.
`CUUUUUUCUCAGUCCUAAUUUGAACAGGUCAAAGAUGUGUUCAGGCAUUCCAGGUAACAGGUGUGUAUGUAAAGUUAAAAAUAGGCUUUUUAGGAACUCACUCUUUAGAU`: “RBNS enrichment (R)” 0.374.
Under “RBNS enrichment (R)”, `UGGGGAAGAGUGAAAGAUAUAAAGUAACCUAAUUAAAUGUAUGGAAUUGCUAUUUUUAUAGCUGAUAUAGUUACACCUCAAGCCCCUCAGGGGUAACAACUAACAAACAC` is recorded as 1.06.
`CUCCCCACUUAAGUCCAAGUCACAUUGUCUAUCCCAGUGUGUAGCUCUGUCACCCUGCUUGACACAUCCAGUGGCCUACAGCGACUCUUCUCUAACCCCACCCCCUCCAA`: “RBNS enrichment (R)” 0.733.
Under “RBNS enrichment (R)”, `GACUGUGGUAACUAGCUGUGACCAAGAAGAGAAAAUGUUGUGUCUUGGGAAAUGAACUUGGAUCUCUCCAUAAUGGUUUCAACAUUCAAACUUUACUACUUAAGUCAAUA` is recorded as 0.64.

Series 2 — target: CRIPT, C-terminal peptide; technique: DHFR complementation, deep sequencing; sample: yeast; baseline: wild type; direction: higher = weaker binding
Notes: single substitutions, model-inferred values
Parent: ERBIN, PDZ domain 1 (human); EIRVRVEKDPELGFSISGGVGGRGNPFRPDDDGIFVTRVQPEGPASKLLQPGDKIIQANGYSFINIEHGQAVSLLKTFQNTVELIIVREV; partner TKNYKQTSV
`G24A`: “binding free energy change” 1.54 kcal/mol.
`R88P`: “binding free energy change” 0.434 kcal/mol.
`P10R` — result for “binding free energy change”: -0.785 kcal/mol.
`S17A` — result for “binding free energy change”: -0.146 kcal/mol.
`R38N` — result for “binding free energy change”: 0.221 kcal/mol.
Under “binding free energy change”, `I66L` is recorded as -0.0637 kcal/mol.
Under “binding free energy change”, `E83T` is recorded as -0.0331 kcal/mol.
`I55N` — result for “binding free energy change”: 0.505 kcal/mol.

Series 3 — technique: universal PBM; molecule type: double-stranded DNA, one strand shown; sample: in vitro; tested at: 600 nM; direction: higher = stronger binding
Target: Sal-like protein 4, full length isoform A (SALL4, Homo sapiens, UniProt Q9UJQ4, residues 1-1053)
Chain of UniProt Q9UJQ4 (whole entry, looked up): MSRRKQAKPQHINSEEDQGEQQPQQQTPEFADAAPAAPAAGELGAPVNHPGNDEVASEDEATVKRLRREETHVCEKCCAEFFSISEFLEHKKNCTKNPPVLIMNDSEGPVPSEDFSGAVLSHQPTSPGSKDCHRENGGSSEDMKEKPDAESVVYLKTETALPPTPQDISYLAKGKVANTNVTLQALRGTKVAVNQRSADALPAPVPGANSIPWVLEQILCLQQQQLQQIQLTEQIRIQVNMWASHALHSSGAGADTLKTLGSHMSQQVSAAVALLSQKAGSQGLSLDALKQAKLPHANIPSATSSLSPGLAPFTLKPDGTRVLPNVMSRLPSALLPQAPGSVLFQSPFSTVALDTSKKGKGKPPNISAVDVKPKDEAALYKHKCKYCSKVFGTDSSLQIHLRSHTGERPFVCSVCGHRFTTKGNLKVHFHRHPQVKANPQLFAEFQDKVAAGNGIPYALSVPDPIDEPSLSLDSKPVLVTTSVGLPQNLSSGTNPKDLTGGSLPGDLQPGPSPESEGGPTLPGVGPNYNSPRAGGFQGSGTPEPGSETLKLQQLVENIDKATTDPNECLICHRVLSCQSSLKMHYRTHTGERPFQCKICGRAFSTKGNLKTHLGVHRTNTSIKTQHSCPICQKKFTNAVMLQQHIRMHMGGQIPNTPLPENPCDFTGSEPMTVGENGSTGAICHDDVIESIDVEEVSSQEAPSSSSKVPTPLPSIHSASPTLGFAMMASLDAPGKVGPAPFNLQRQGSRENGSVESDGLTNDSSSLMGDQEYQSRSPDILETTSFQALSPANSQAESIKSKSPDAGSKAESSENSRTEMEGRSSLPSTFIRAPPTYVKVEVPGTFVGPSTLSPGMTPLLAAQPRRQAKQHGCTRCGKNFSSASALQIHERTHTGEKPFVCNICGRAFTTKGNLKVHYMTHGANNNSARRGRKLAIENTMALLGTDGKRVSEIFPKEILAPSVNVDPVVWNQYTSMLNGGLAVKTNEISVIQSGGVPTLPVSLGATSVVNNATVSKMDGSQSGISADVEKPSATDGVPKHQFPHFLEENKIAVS
Notes: 8-mer, flanks averaged, mean of replicates
For `AGACGCAT`, the E-score was 0.0163.
For `CTACTCAA`, the E-score was 0.215.
For `GATAGTCA`, the E-score was 0.104.
`ACATAGCG` has an E-score of 0.15.
`ACCTATGG` has an E-score of -0.066.
The E-score of `AGACAATC` is reported as 0.0848.
For `AGCAGGAT`, the E-score was -0.0442.
With `CAAAACTC` the E-score was 0.0928.

Mixed results
With NC(=O)c1ccc(N(C(N)=O)c2c(F)cccc2F)nc1-c1ccc(F)cc1F the remaining activity was 100% (Tyrosine-protein kinase ZAP-70 (ZAP70, Homo sapiens, UniProt P43403); enzyme activity, inhibitor; 0.5 µM; baseline: control).

For quick reference, copied from above (series 3):
With `CAAAACTC` the E-score was 0.0928.
